Experimental data of several laboratories.
Every numbered part comes from another study and shows a few of its results, in no order. Changes are numbered by the printed parent chain.
UniProt P61077, sequence (whole entry, looked up): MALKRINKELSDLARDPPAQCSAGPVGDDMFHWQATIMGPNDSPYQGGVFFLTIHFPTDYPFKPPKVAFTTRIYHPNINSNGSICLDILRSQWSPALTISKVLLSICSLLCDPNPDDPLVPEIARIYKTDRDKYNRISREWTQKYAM

Block 1 — technique: protein-binding microarray; molecule type: double-stranded DNA, one strand shown; matrix: in vitro; tested at: 250 nM; notes: 60-bp whole probe; added: salmon DNA 0.4 mg/ml; relative to: random background probes; reading: higher = stronger binding; shared flanks, not repeated: GCCTAGCAC … GTCTTGATTCGCTTGACGCTGCTG
Target: Interferon regulatory factor 5, full length, phosphomimetic (IRF5, Homo sapiens, UniProt Q13568-2, residues 1-514, K96S/S451D/S453D/S456D/S462D)
Strand | log fluorescence [z-score]
TCACCTGTGCTATTTATAACTGTGCTA | 0.286
GACGGTTTCGGTTCCGGGAAGTGCTAG | 10.1
TTAGGAGTGGACACTGGGTTAGTGCTA | -0.416
TTTTTTTTTTTTTCTGATCCGTGCTAG | 1.7
GACGGACTGGGGCCTGGGGACGTGCTA | -0.859
TTAGGACTGATACTGCTTTAGTGCTAG | 0.311
GTCTCTTGTTCTCTCTGGCCGTGCTAG | 0.295
TTAGGTATCGACACTGGGTTGGTGCTA | 2.27
TCATGTTTGGTCCTGATACTGTGCTAG | 0.0467
TTAGGTTTCCTCTCCCTTTAGTGCTAG | 0.525
TCATTATTAGTGACTCAGACTGTGCTA | 0.369
GACGGACTGCTTATCCTCACGTGCTAG | -0.23
TCAAAAAAAAAAAACTGTACTGTGCTA | 0.829
CTACGTCTGATTTTGCTTTCGTGCTAG | 2.41
GACGGTATCCGTATCCTGACGTGCTAG | 0.205
TTCTGAAGCAGAGCCCTGTTGTGCTAG | -0.287
GACGGACCGGACTATCGGGACGTGCTA | 0.949
GGGGAGCAGGGTGGCCCTGTGTGCTAG | -0.907
GACGATTTCACACTGGAGACGTGCTAG | 0.53
CTGAGAATGGGGTTTGCAGCCGTGCTA | -0.616
TTAGATTTCAGTATTGATTAGTGCTAG | 2.72
TTCGGTTCCCTTTTCCTTTAGTGCTAG | 1.77
GACGGTATCGGGACAGGGGACGTGCTA | 1.28
TCAAAATTGTCTCTGTCACTGTGCTAG | 0.736
GACGATCTCAGTATCGAGAAGTGCTAG | 1.69

Block 2 — target: CCNA1, cyclin fold, Cln2 fusion (human); technique: yeast growth competition, sequencing; matrix: yeast; notes: weak parent motif; relative to: not given; reading: higher = stronger binding
Starting sequence: RB1 docking peptide (human); PKPLKKLRFDIEG
Variant | normalised enrichment score
PVPLKKLRFDIEG [K2V] | 0.591
PKPLKKLRFDIVG [E12V] | 0.0476
PKPLKKLRTDIEG [F9T] | 0.296
GKPLKKLRFDIEG [P1G] | 0.156
PKPLKKLHFDIEG [R8H] | 0.448
PKPLKGLRFDIEG [K6G] | 0.3
PKVLKKLRFDIEG [P3V] | 0.205
PKGLKKLRFDIEG [P3G] | 0.383
PKPLKKLRFDMEG [I11M] | 0.048
TKPLKKLRFDIEG [P1T] | 0.322
PKPLKKLRFFIEG [D10F] | 0.369
PKPLKKLRFDHEG [I11H] | 0.491
PKRLKKLRFDIEG [P3R] | 0.363
PKPLKKLRFQIEG [D10Q] | 0.103

Block 3 — technique: DHFR PCA, deep sequencing; matrix: yeast; added: (+)-ABA 58 µM; relative to: wild-type fitted maximum; reading: higher = stronger binding
Target: ABI1, truncated, D143A, DHFR fusion (Arabidopsis thaliana)
Notes: methotrexate growth selection, single substitutions
Starting sequence: PYL1, truncated, DHFR fusion (Arabidopsis thaliana); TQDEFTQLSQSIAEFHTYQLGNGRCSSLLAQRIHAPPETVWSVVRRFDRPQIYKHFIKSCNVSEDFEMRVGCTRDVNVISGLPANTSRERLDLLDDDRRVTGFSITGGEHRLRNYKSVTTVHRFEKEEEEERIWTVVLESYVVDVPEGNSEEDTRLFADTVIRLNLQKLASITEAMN
Variant | relative binding score [%]
I52S | 83.7
D48F | 11.8
I79H | 87.5
Q7V | 93.8
V137Q | 12.8
W134A | 86
K126R | 93.9
S26C | 85.6
T6P | 100
S63D | 87.7
N77D | 82.7

Block 4 — target: CREB3L2, bZIP domain (human); technique: DHFR protein complementation; matrix: yeast; relative to: wild-type JUN-FOS pair; reading: higher = stronger binding
Notes: single substitutions, most at no-binding floor
Starting sequence: JUN, bZIP domain (human); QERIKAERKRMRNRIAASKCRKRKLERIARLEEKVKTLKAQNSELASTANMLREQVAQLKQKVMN; partner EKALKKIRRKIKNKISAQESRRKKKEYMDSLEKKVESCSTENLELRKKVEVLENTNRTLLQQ
Variant | binding fitness
N42A | -1.48 natural log
L31D | -1.53 natural log
I28K | -1.21 natural log
V56T | -1.51 natural log
K36A | -1.35 natural log
E32S | -1.54 natural log
L38P | -1.5 natural log
Q55V | -1.49 natural log
S43A | -1.41 natural log
K36C | -1.49 natural log
E44Q | -0.973 natural log
I28Q | -1.5 natural log
R30H | -1.4 natural log
A40C | -1.51 natural log

Block 5 — technique: protein binding microarray; molecule type: double-stranded DNA, one strand shown; matrix: in vitro; tested at: not given; relative to: not given; reading: higher = stronger binding
Target: Histone acetyltransferase KAT6A, winged helix 1, GST fusion (KAT6A, Homo sapiens, UniProt Q92794, residues 1-85)
Notes: 8-mer, flanks averaged, mean of 2 arrays, mostly near background
Target sequence (chain): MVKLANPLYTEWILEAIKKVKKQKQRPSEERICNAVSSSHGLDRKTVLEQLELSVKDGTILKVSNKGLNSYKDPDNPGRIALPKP
Strand | E-score
ATTCAAAC | -0.207
ATATACCG | 0.2
AAGGTAGT | -0.0446
ATGTACAT | 0.0309
ATAGCTGC | -0.193
GTCCACAC | -0.085
ACTCTCCA | -0.237
ATTAACTC | -0.0785
AAGGTCAG | -0.212
TCTGGGAA | -0.228
GAGCTCGC | 0.0786
ATACTTGC | 0.099
AAGAAAAG | -0.203
CTCCTGAC | -0.0478
CGAACCTC | 0.00983
CCAGCGAC | 0.0474
AACGGCCG | 0.387
GCAGTCAC | -0.104
GGTGGGAC | -0.0996
CTTTGACC | -0.0532
GACACTGC | -0.119
GAATAAAA | 0.00234
AACGAGAT | -0.142
ACAACATA | -0.194
AGGATGGC | -0.0771

Block 6 — technique: RNA Bind-n-Seq; molecule type: RNA; matrix: in vitro; tested at: 200 nM; notes: whole 134-nt RNA, ends assumed; added: 150 mM KCl; relative to: input library; reading: higher = stronger binding
Target: Fragile X messenger ribonucleoprotein 1, C-terminal low-complexity region (Fmr1, Mus musculus, UniProt P35922)
Shared flanks, not repeated: GGGAGUUCUACAGUCCGACGAUC … UGGAAUUCUCGGGUGUCAAGG
Strand | log2 enrichment
CACAGACAACACGCACCCACACAGACACAGAGGGAAGGGGUUGGGAUGGGGACAGGGUGCACCGCAGGGCGGGGUAGGACCCCAGCCCCU | 1.36
AGUCCUGUGCUACACAUCGUAUGUACCGAAUCGGGAAAAAGGAAAAAGGGGAAAAAGGAAAGUAUUAUGUUACGCCGUUCGGAUCUGCAC | -0.5
UAACUUUAGAGGAGGAUCUGAUGGAUAUGGCAGUGGACGUGGAUUUGGGGAUGGCUAUAAUGGGUAUGCAGGAGGACCUGGAGGUGGCAA | 0.237
UAACUUUAGAGGAGGAUCUGAUGGAUAUGGCAGUGGAUGUGGAUUUGGGGAUGGCUAUAAUGGGUAUGGAGGAGGACCUGGAGGUGGCAA | 0.258
AGUCCUGUGCUACACAUCGUAUGUACCGAAUCGGGAAAAAGGGAGGGAAAAAAAGGGAAAGUAUUAUGUUACGCCGUUCGGAUCUGCACU | 0.2
GCAGGAAGUAAAAACAAAUGGAAAUGCUUCGGAUAGUGGCAGGGGUGGGGGUUGCUAAGGAAAGGGUGGGACGGGAGUGGGUAAAGAGUU | -0.00282
CAAGUCCUGUGCUACACAUCGUAUGUACCGAAUCGGCCCCGGGCCCCGGGCCCCGGAAAGUAUUAUGUUACGCCGUUCGGAUCUGCACUU | -0.615

Mixed results — technique: yeast two-hybrid; matrix: yeast; notes: mostly zero background; relative to: not given; reading: higher = stronger interaction; UBE2G2: UBE2G2 UBC core domain (UniProt P60604)
UniProt P60604, sequence (whole entry, looked up): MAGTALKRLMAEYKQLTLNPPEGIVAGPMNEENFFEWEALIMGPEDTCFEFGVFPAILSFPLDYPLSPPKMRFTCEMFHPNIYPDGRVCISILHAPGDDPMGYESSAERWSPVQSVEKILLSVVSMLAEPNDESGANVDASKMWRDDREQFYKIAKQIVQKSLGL
B1: RNF103 RING domain (UniProt O00237); chain WPADMLHCTECVVCLENFENGCLLMGLPCGHVFHQNCIVMWLAGGRHCCPVCRWPSYKKKQPY
B2: BFAR RING domain (UniProt Q9NZS9); chain GPQISVSEFSCHCCYDILVNPTTLNCGHSFCRHCLALWWASSKKTECPECREKWEGFPKVS
Molecule | target | lacZ reporter activity
B1 (RNF103 RING domain) | UBE2G2 | 4410
B2 (BFAR RING domain) | UBE2G2 | 0
FDPPLESKYECPICLMALREAVQTPCGHRFCKACIIKSIRDAGHKCPVDNEILLENQLFP (TRAF6 RING domain (UniProt Q9Y4K3)) | UBE2D3 UBC core domain (UniProt P61077) | 0
FAEQPSVKLCCQLCCSVFKDPVITTCGHTFCRRCALKSEKCPVDNVKLTVVVNNI (TRAF7 RING domain (UniProt Q6Q0C0)) | UBE2G2 | 0

Some of these lines once more (block 2):
Variant | normalised enrichment score
PKPLKKLRTDIEG [F9T] | 0.296
GKPLKKLRFDIEG [P1G] | 0.156
PKPLKKLRFQIEG [D10Q] | 0.103
PKRLKKLRFDIEG [P3R] | 0.363
PVPLKKLRFDIEG [K2V] | 0.591
PKPLKKLRFFIEG [D10F] | 0.369
TKPLKKLRFDIEG [P1T] | 0.322
PKGLKKLRFDIEG [P3G] | 0.383
PKPLKKLRFDHEG [I11H] | 0.491
PKPLKKLHFDIEG [R8H] | 0.448
PKPLKKLRFDMEG [I11M] | 0.048
PKPLKKLRFDIVG [E12V] | 0.0476
PKVLKKLRFDIEG [P3V] | 0.205
